Measurements collected from several papers.
Each line is one published result; not all experiments were run side by side. ± gives the spread as reported.
Cell line: MOLT-4

| Structure (SMILES) | test | conditions | quantity | value |
| --- | --- | --- | --- | --- |
| CCN(CC)c1ccc(C=NNC(=O)CSc2nc3ccccc3c(=O)n2Cc2ccc(S(N)(=O)=O)cc2)c(O)c1 | NCI five-dose screen |  | CC50 | > 100 µM |
| COc1c(CCC[P+](c2ccccc2)(c2ccccc2)c2ccccc2)cc2c(c1OC)OCO2.[I-] | SRB |  | GI50 | -5.51 log M |
| CC(C)N1CCC(NC2CCN(c3cccc(-c4cc5cc(F)ccc5[nH]4)c3)CC2)CC1 |  |  | GI50 | 1.54 µM |
| Nc1ncc(-c2nc(N3CCOCC3)nc(N3CCOCC3)n2)c(C(F)F)n1 |  | 72 h | GI50 | 0.083 µM |
| COc1cc(C(=O)c2cc3c(-c4ccccc4)c(OC)ccc3o2)cc(OC)c1OC | cell proliferation | 72 h | IC50 | > 50 µM |
| Cn1cncc1C1=CN(c2ncnc3[nH]cnc23)CCS1 |  | leukemia | CC50 | > 200 µM |
| O=C(c1ccccc1)c1cc2c(-c3ccccc3)c(O)ccc2o1 | cell proliferation | 72 h | IC50 | 38 ± 4 µM |
| COc1cc(CCC[P+](c2ccccc2)(c2ccccc2)c2ccccc2)c(OC)c2c1OCO2.[I-] | SRB |  | GI50 | -5.48 log M |
| CN1CCN(C2(CNC3CCN(c4cccc(-c5cc6cc(F)ccc6[nH]5)c4)CC3)CCC2)CC1 |  |  | GI50 | 1.61 µM |
